Measured values collected from several papers.
Protocols differ between the studies behind these lines. Values joined by “and” are separate records of one study, mostly repeats; a detail may differ. ± marks the error that the study gave.

With `Cc1cc(NC(=O)[C@H](O)c2cc(F)cc(F)c2)ccc1-c1cnc(N)c(C(=O)NC(C)C)c1` the AUC(0-inf) was 39400 ng·h/mL (female nude mouse, plasma; oral, 50 mg/kg, single dose).
With `CC[C@H](C)[C@@H]1NC(=O)[C@H](Cc2ccc(O)cc2)NC(=O)CCCSC[C@@H](C(=O)N(CC(=O)N[C@@H](CC(C)C)C(=O)NCC(N)=O)Cc2ccc(F)cc2)NC(=O)[C@H](CC(N)=O)NC(=O)[C@H](CCC(N)=O)NC1=O` the AUC(0-inf) was 0.151 ng·h/mL (healthy women, plasma; intranasal, 400 µg single dose).
For `Cc1cc(Cl)c(OCCOCCN2CCN(C)CC2)c(Br)c1.O=C(O)C(=O)O`, the translation activity was 118% (Trypanosoma cruzi; reporter mRNA translation, inhibitor, refers to: Renilla luciferase mRNA; cell-free extract; concentration not given, test 3; baseline: positive over negative control).
The AUC(0-inf) of `CN1CCN(C(=S)N/N=C/c2ccccc2O)CC1` is reported as 2980 ± 365 ng·h/mL (plasma; intravenous, 30 mg/kg).
`N=C(N)NCCC[C@@H]1NC(=O)[C@H](CO)NC(=O)[C@@H](NC(=O)[C@H](CO)NC(=O)[C@H](CO)NC(=O)[C@H](Cc2c[nH]c3ccccc23)NC(=O)CNC(=O)[C@H](CO)NC(=O)[C@@H](N)Cc2c[nH]c3ccccc23)CSSC[C@@H](C(=O)NCC(=O)O)NC(=O)[C@H](CO)NC1=O` has an AUC(0-inf) of 824 ng·h/mL (patients, plasma; intravenous, 10 mg/kg, thrice weekly, geometric mean).
With `C=C(NC(=O)c1csc(-c2nc3c(cc2O)-c2nc(cs2)C(=O)NC(C(C)O)C(=O)NC(=C(C)OC)c2nc(cs2)C(=O)NC2c4nc(cs4)C(=O)NC(COC(=O)c4c5c6c(cccc6n4O)COC(=O)C(OC4CC(C)(O)C(N(C)C)C(C)O4)C2OC5)c2nc-3cs2)n1)C(N)=O` (centres unmarked) the AUC(0-inf) was 28100 ng·h/mL (female cynomolgus monkey, plasma; intravenous, 3 mg/kg, single dose, infusion).
`COc1cnc2cccc(N3CCc4c(cc(Cn5ccnc5)cc4-c4cn(C)nc4C(F)(F)F)C3=O)c2c1` gave an AUC(0-inf) of 50500 ng·h/mL (male CD-1 mouse, plasma; oral, 50 mg/kg).
For `Cn1c2cc([S+](C)[O-])sc2c2cnn(Cc3cccc(N)c3)c(=O)c21` (centres unmarked), the AUC(0-inf) was 27000 ng·h/mL (male BALB/c mouse, plasma; intraperitoneal, 10 mg/kg, single dose).
`C/C(N)=N/C(=N\S(=O)(=O)c1ccc(C(F)(F)F)cc1)N1C[C@H](c2ccccc2)C(c2ccc(Cl)cc2)=N1` gave an AUC(0-inf) of 56600 ng·h/mL (male C57BL/6 mouse, liver; oral, 10 mg/kg).
`COCC1CN(C2CCN(c3cc(OC)c(Nc4ncc(Br)c(Nc5ccc6c(c5P(C)(C)=O)OCCO6)n4)cc3C)CC2)C1` has an AUC(0-inf) of 545 ng·h/mL (EGFR-mutant NSCLC patients, plasma; oral, 10 mg single dose, geometric mean).
The translation activity of `CC(=O)c1cccc(CN2CCCC(CCC(=O)NCc3ccccc3F)C2)c1` (centres unmarked) is reported as 118% and 147% (Trypanosoma cruzi; reporter mRNA translation, inhibitor, refers to: Renilla luciferase mRNA; cell-free extract; concentration not given, test 1; baseline: positive over negative control).

Repeated from above:
For `Cc1cc(Cl)c(OCCOCCN2CCN(C)CC2)c(Br)c1.O=C(O)C(=O)O`, the translation activity was 118% (Trypanosoma cruzi; reporter mRNA translation, inhibitor, refers to: Renilla luciferase mRNA; cell-free extract; concentration not given, test 3; baseline: positive over negative control).
`C/C(N)=N/C(=N\S(=O)(=O)c1ccc(C(F)(F)F)cc1)N1C[C@H](c2ccccc2)C(c2ccc(Cl)cc2)=N1` gave an AUC(0-inf) of 56600 ng·h/mL (male C57BL/6 mouse, liver; oral, 10 mg/kg).
